Assay results pooled from the literature.
Every numbered part comes from another study and shows a few of its results, in no order. “And” joins repeats or separate records; there may be more than shown.
Chain of UniProt Q9UHD2 (whole entry, looked up): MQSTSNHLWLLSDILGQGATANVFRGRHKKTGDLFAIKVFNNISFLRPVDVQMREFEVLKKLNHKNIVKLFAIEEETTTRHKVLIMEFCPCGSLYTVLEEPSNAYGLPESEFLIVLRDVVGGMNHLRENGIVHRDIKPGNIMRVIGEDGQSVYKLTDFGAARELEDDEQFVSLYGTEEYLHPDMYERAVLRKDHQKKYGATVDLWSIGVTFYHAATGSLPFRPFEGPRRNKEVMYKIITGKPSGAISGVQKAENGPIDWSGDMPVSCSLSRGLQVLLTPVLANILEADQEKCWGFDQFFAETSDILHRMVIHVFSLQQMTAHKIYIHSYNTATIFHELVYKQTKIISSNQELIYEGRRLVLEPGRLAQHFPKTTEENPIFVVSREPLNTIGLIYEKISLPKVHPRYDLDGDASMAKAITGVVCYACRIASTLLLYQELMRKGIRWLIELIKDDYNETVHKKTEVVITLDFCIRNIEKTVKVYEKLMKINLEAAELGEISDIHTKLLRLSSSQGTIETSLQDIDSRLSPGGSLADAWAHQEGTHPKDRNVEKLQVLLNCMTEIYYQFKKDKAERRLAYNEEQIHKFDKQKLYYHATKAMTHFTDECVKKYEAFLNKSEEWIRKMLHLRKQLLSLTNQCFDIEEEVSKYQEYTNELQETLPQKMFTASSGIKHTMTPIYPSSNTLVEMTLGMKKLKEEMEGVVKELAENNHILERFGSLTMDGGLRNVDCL
Chain of UniProt Q8NEV4 (whole entry, looked up): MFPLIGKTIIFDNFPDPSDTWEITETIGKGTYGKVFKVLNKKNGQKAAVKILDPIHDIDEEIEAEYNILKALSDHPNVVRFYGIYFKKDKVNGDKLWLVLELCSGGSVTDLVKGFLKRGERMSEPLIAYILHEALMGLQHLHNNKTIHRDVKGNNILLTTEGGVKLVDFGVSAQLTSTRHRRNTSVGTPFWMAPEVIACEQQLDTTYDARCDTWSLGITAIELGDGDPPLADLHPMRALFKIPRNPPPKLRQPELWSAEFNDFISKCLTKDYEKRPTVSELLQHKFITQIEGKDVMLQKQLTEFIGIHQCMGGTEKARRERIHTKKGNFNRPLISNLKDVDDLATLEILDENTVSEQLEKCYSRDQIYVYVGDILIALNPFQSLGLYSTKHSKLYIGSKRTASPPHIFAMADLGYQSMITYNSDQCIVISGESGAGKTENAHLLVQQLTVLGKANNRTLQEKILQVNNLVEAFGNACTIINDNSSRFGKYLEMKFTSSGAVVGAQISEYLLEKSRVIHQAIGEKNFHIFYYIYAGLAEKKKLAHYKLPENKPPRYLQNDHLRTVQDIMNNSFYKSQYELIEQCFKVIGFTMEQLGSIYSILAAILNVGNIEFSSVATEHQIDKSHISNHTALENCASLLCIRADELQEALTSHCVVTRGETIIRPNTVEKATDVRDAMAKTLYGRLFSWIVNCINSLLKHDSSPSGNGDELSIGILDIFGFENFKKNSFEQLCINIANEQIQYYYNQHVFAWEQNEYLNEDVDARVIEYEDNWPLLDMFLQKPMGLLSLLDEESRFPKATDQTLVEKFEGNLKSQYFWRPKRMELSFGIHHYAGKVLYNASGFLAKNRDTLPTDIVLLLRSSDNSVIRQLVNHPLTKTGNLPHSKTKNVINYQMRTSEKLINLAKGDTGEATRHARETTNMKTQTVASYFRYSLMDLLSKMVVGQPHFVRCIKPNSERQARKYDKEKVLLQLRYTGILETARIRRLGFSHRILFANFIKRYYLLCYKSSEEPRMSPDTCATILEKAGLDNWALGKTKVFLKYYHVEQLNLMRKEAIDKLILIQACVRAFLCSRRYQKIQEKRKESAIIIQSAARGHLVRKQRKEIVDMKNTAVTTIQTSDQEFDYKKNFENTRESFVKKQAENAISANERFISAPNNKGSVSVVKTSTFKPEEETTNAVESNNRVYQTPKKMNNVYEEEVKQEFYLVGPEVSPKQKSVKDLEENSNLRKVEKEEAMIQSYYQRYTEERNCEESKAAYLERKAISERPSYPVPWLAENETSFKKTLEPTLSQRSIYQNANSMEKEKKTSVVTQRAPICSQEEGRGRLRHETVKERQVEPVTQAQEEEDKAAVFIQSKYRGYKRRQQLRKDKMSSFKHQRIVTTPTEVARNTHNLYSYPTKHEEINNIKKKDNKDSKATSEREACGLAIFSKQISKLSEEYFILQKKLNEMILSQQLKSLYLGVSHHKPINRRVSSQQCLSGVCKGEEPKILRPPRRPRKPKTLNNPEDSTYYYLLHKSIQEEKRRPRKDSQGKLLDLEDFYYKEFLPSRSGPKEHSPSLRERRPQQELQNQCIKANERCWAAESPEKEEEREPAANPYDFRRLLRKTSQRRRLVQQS

Set 1
Host: mouse
Sample: microsomes or S9
Concentration: 2 µM
Time: 0.5 h
| Structure (SMILES) | remaining compound [%] |
| --- | --- |
| Cn1cc(-c2noc(-c3n[nH]c4ccccc34)n2)ccc1=O | 42.7 |
| O=S(=O)(Cc1ccccc1)CC(O)Cn1cccn1 (stereo not drawn) | 75.8 |
| COCCN1N=C(C)Cn2c1nc1c2c(=O)n(Cc2ccccc2Cl)c(=O)n1C | 49.6 |
| O=C(Nc1n[nH]c(Cc2ccc(F)cc2)n1)c1ccn2nnnc2c1 | 43.3 |
| CC1(C)CC(CNCCC(c2ccc(F)cc2)c2ccco2)CCO1 (stereo not drawn) | 7.45 |
| COc1ccc(-c2cn3c4ccccc4nc3n2CCN2CCN(C)CC2)cc1 | 2.96 |
| Cc1cc2n(CCNC(=O)COc3ccc(F)cc3)ccn2n1 | 47.7 |
| Cn1c(=O)c2cc(C(=O)O)c(=O)n(C)c2n(C)c1=O | 50.3 |
| CC(C)CCC(C(N)=O)C1=NC(C)(C)Cc2ccccc21 (stereo not drawn) | 6 |

Set 2
SMILES: CN(c1ccnc(CNc2nc(Nc3ccc4c(c3)CC(=O)N4)ncc2C(F)(F)F)n1)S(C)(=O)=O
Read-out: cell-free assay
Method: competition with immobilised ligand
Concentration: 1 µM
| target | remaining binding |
| --- | --- |
| Myosin-IIIa (MYO3A, Homo sapiens, UniProt Q8NEV4) | 100% |
| PIM2 (Homo sapiens, UniProt Q9P1W9) | 100% |
| Tyrosine-protein kinase ABL1, non-phosphorylated (ABL1, Homo sapiens, UniProt P00519, Q252H) | 94% |
| COQ8B (Homo sapiens, UniProt Q96D53) | 84% |
| MAP3K10 (Homo sapiens, UniProt Q02779) | 49% |
| MINK1 (Homo sapiens, UniProt Q8N4C8) | 53% |
| TIE1 (Homo sapiens, UniProt P35590) | 17% |
| TBK1 (Homo sapiens, UniProt Q9UHD2) | 21% |
| GRK4 (Homo sapiens, UniProt P32298) | 10% |
| ACVR1 (Homo sapiens, UniProt Q04771) | 91% |

Set 3
Target: Tyrosine-protein kinase receptor TYRO3 (TYRO3, Homo sapiens, UniProt Q06418)
Read-out: enzyme activity
Mode: inhibitor
Concentration: 0.5 µM
Relative to: control
Construct (Q06418 1-890): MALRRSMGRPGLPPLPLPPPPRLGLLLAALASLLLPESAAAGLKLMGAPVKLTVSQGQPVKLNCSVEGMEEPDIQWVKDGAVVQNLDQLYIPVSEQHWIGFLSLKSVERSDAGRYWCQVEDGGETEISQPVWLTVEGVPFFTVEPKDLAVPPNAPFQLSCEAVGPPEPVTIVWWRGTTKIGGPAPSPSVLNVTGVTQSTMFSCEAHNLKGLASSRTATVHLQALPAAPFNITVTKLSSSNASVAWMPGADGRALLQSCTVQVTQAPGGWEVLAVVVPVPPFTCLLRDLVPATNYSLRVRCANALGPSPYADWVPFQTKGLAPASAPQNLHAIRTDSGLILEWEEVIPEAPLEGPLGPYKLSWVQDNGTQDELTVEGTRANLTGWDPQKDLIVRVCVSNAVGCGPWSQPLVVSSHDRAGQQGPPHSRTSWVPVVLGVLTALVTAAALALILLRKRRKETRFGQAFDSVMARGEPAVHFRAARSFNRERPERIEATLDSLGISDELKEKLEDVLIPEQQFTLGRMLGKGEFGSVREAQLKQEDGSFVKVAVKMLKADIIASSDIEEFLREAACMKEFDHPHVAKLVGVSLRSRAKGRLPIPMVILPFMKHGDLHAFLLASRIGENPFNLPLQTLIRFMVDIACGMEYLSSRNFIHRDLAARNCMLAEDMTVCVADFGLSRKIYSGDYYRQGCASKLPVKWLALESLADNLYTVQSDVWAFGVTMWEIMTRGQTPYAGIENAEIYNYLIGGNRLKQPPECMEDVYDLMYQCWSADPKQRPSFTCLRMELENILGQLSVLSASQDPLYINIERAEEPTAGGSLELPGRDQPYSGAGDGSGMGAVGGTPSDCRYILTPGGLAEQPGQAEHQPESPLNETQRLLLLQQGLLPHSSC
| Structure (SMILES) | remaining activity [%] |
| --- | --- |
| Nc1[nH]nc2nc3ccccc3nc12 | 101 |
| O=C(O)c1ccc2c3c1cccc3c(=O)n1c3ccccc3nc21 | 102 |
| Cn1sc(=O)n(Cc2ccccc2)c1=O | 99.9 |
| NCCNc1ncc(C(N)=O)c(Nc2cccc(C(F)(F)F)c2)n1 | 94.2 |
| O=C(CCCc1ccc(-c2ccccc2F)cc1)Nc1ccc(O)cc1 | 98.2 |
| CN(C)c1ccc(C=C2C(=O)Nc3ccccc32)cc1 | 92.7 |
| COc1ccc(OC)c2c(=S)c3ccccc3[nH]c12 | 97.1 |
| O=C1NC(=O)C(c2cn(CCCO)c3ncccc23)=C1c1cnccn1 | 93.7 |
| COc1cc2nccc(Oc3ccc(NC(=S)NC(=O)c4ccccc4C)cc3)c2cc1OC | 92.2 |
| N#CC(C#N)=C(N)/C(C#N)=C/c1ccc(O)cc1 | 99.3 |
| O=C(Nc1cccc(Nc2cc(Nc3cccc(C(F)(F)F)c3)ncn2)c1)C1CC1 | 85.4 |
| COc1ccc(CNC(=O)Nc2ncc([N+](=O)[O-])s2)cc1 | 100 |
| Oc1ccc(-c2nc(-c3ccncc3)c(-c3ccc(F)cc3)[nH]2)cc1 | 97.5 |
| OCC(O)CCON=C1C(c2c(O)[nH]c3ccccc23)=Nc2ccccc21 (stereo not drawn) | 71.5 |
| O=C1NC(=O)C(c2cn(CCCn3ccnc3)c3ccccc23)=C1Nc1ccccc1 | 99.6 |

Set 4
Target: DNA polymerase theta, ATPase domain (POLQ, Homo sapiens, UniProt O75417)
Chain of UniProt O75417 (whole entry, unmodified, looked up): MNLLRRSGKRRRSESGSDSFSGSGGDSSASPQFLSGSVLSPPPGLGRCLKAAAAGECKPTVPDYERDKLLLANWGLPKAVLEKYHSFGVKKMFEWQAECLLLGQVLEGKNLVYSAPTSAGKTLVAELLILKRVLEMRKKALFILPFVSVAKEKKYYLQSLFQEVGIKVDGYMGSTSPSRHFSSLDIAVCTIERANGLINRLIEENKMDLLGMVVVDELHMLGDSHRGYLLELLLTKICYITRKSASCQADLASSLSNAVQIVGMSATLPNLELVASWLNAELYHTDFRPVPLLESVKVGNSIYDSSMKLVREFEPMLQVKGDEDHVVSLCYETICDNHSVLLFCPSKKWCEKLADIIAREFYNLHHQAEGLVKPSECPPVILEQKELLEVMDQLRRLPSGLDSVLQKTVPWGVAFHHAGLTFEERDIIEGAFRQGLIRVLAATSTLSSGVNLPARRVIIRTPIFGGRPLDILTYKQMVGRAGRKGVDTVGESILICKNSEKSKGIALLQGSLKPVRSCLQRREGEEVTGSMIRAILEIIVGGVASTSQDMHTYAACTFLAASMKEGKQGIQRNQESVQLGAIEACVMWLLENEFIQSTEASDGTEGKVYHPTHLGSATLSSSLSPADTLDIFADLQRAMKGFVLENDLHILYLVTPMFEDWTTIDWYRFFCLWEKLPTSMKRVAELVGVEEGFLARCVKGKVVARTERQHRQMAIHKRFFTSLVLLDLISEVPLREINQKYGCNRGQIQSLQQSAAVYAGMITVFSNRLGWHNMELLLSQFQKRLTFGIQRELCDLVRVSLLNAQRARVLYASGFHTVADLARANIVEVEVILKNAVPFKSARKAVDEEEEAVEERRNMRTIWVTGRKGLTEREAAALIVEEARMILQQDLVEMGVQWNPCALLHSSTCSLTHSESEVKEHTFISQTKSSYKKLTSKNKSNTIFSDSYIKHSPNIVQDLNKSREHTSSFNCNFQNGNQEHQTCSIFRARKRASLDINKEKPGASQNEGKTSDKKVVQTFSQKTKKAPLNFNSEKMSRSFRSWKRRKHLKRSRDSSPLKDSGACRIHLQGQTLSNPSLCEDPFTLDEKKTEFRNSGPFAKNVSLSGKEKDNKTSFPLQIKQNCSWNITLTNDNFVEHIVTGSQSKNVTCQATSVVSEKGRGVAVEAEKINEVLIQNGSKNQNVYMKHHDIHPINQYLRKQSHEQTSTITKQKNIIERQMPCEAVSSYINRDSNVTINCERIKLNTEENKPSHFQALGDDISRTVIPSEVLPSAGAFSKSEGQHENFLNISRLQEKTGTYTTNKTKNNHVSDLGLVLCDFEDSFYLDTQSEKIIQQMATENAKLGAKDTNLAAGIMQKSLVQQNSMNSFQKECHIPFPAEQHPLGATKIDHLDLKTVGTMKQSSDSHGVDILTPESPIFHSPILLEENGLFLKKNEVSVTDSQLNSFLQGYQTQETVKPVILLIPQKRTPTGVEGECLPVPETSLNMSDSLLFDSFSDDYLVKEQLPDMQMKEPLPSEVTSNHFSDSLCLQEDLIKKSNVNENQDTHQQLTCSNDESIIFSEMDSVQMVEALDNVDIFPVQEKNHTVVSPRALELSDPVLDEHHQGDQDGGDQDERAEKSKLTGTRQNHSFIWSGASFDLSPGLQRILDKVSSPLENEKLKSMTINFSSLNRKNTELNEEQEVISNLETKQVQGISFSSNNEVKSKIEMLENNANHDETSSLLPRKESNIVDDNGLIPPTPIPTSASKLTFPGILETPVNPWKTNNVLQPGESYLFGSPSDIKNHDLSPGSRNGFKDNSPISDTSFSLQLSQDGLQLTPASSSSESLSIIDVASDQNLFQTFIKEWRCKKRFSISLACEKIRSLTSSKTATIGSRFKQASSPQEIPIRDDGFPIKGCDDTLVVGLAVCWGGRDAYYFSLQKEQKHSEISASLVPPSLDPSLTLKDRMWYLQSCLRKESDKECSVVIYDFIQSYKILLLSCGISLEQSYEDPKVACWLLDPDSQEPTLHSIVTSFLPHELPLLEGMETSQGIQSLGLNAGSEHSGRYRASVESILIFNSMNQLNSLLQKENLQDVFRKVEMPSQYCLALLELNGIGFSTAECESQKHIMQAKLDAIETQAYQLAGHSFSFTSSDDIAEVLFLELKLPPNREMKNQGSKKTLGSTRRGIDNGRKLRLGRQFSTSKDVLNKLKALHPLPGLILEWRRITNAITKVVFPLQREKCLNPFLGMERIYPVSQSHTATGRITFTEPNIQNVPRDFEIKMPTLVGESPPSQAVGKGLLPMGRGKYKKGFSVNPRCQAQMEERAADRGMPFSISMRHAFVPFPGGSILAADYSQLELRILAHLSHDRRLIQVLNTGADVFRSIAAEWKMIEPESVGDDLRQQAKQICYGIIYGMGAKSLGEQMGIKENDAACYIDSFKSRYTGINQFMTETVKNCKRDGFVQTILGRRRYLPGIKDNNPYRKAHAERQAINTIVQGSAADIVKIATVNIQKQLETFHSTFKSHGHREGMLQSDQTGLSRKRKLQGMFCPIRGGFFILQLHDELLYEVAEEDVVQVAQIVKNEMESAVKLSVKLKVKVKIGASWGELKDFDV
Read-out: enzyme activity
Mode: inhibitor
Concentration: 77 µM
Relative to: untreated
| SMILES | remaining activity |
| --- | --- |
| CCOC(=O)c1ccc(N)cc1 | 94.4% and 102% |
| CNC(=N)NCCC[C@H](N)C(=O)O | 98.3% |
| NC[C@@H]1O[C@@H](O[C@@H]2[C@@H](O[C@@H]3O[C@H](CO)[C@@H](O)[C@H]3O)[C@H](O)[C@@H](N)C[C@H]2N)[C@@H](N)[C@H](O)[C@H]1O | 102% |
| Cc1cc(N2CCOCC2)cc2[nH]c(-c3c(NC[C@@H](O)c4cccc(Cl)c4)cc[nH]c3=O)nc12 | 98.3% |
| C=CCSCC1Nc2cc(Cl)c(S(N)(=O)=O)cc2S(=O)(=O)N1 (stereo not drawn) | 91.8% |
| CCc1c(C)[nH]c2c1C(=O)C(CN1CCOCC1)CC2 (stereo not drawn) | 89.3% |
| COc1cc2c(cc1OC)CC(=O)N(CCCN(C)C[C@H]1Cc3cc(OC)c(OC)cc31)CC2 | 99% |
| C[C@@]12C(=O)OC(=O)[C@]1(C)[C@H]1CC[C@@H]2O1 | 93.8% and 95.5% |

Some of these lines once more (set 1):
| Structure (SMILES) | remaining compound [%] |
| --- | --- |
| O=S(=O)(Cc1ccccc1)CC(O)Cn1cccn1 (stereo not drawn) | 75.8 |
| COCCN1N=C(C)Cn2c1nc1c2c(=O)n(Cc2ccccc2Cl)c(=O)n1C | 49.6 |
| O=C(Nc1n[nH]c(Cc2ccc(F)cc2)n1)c1ccn2nnnc2c1 | 43.3 |
